Assay results gathered from unrelated publications.
Protocols differ between the studies behind these lines. ± marks the error that the study gave.
Organism: Enterococcus faecalis

| Compound | test | test system | conditions | quantity | result |
| --- | --- | --- | --- | --- | --- |
| CCCNC(=O)[C@H](Cc1ccc(O)cc1)NC(=O)[C@H]1NC(=O)[C@@H](c2ccc(O)cc2)NC(=O)[C@H](NC(=O)[C@H](CC(N)=O)NC(=O)[C@@H](Cc2ccc(O)cc2)NC(=O)[C@@H](CC(C)C)NC)c2ccc(O)c(c2)Oc2ccc1cc2 | bacterial growth |  |  | IC50 | > 40 µM |
| CC(=O)C(C)(c1c[nH]c2ccccc12)c1c[nH]c2ccccc12 | microbial growth, absorbance |  |  | IC50 | > 50 µM |
| CCCC/C=C/C(=O)N[C@@H](Cc1cc(F)cc(F)c1)C(=O)N[C@@H]1C(=O)N2CCC[C@H]2C(=O)N2CC[C@H](C)C[C@H]2C(=O)N[C@@H](C)C(=O)N2CCC[C@H]2C(=O)O[C@H]1C | microbial growth, broth dilution |  |  | MIC | < 0.02 ng/mL |
| CCCCCCn1cc[n+](CCCCCCCCOc2cc(OCCCCCCCC[n+]3ccn(CCCCCC)c3)cc(OCCCCCCCC[n+]3ccn(CCCCCC)c3)c2)c1.[Br-].[Br-].[Br-] |  | OG1RF |  | MIC | 1 µM |
| CN[C@H](CC(C)C)C(=O)N[C@H]1C(=O)N[C@@H](CC(N)=O)C(=O)N[C@H]2C(=O)N[C@H]3C(=O)N[C@H](C(=O)N[C@H](C(=O)O)c4cc(O)cc(O)c4-c4cc3ccc4O)[C@H](O)c3ccc(c(Cl)c3)Oc3cc2cc(c3O[C@@H]2O[C@H](CO)[C@@H](O)[C@H](O)[C@H]2O[C@H]2C[C@](C)(NCc3ccc(-c4ccc(Cl)cc4)cc3)[C@H](O)[C@H](C)O2)Oc2ccc(cc2Cl)[C@H]1O |  | VanA VRE BM_4166 | no LTA, added: Mg2+ 100 µg/mL | MIC | 5000 ng/mL |
| CCCC/C=C/C(=O)N[C@@H](Cc1cc(F)cc(F)c1)C(=O)N[C@@H]1C(=O)N2CCC[C@H]2C(=O)N(C)[C@@H](C)C(=O)N[C@@H](C)C(=O)N2CCC[C@H]2C(=O)O[C@H]1C | microbial growth, broth dilution |  |  | MIC | 0.76 ng/mL |
| O=Cc1c[nH]c2ccccc12 | microbial growth, absorbance |  |  | IC50 | > 50 µM |
| CCCNC(=O)[C@@H]1Cc2ccc(O)c(c2)-c2cc(ccc2O)C[C@H](NC(=O)[C@H](NC(=O)[C@H](NC(=O)[C@H](CC(N)=O)NC(=O)[C@@H](Cc2ccc(O)cc2)NC(=O)[C@@H](CC(C)C)NC)c2ccccc2)c2ccc(O)cc2)C(=O)N1 | bacterial growth |  |  | IC50 | 21 ± 3 µM |
| CCCCCC[N+](C)(C)CCCCOc1cc(OCCCC[N+](C)(C)CCCCCC)cc(OCCCC[N+](C)(C)CCCCCC)c1.[Br-].[Br-].[Br-] |  | OG1RF |  | MIC | 250 µM |
| O=C1Nc2ccccc2C1(c1c[nH]c2ccccc12)c1c[nH]c2ccccc12 | microbial growth, absorbance |  |  | IC50 | > 50 µM |
| CCCCCCn1cc[n+](CCCCOc2cc(OCCCC[n+]3ccn(CCCCCC)c3)cc(OCCCC[n+]3ccn(CCCCCC)c3)c2)c1.[Br-].[Br-].[Br-] |  | OG1RF |  | MIC | 32 µM |
| CC(c1c[nH]c2ccccc12)c1c[nH]c2ccccc12 | microbial growth, absorbance |  |  | IC50 | > 50 µM |
| CCCCCCCCCC[N+](C)(C)CCCCCCOc1cc(OCCCCCC[N+](C)(C)CCCCCCCCCC)cc(OCCCCCC[N+](C)(C)CCCCCCCCCC)c1.[Br-].[Br-].[Br-] |  | OG1RF |  | MIC | 1 µM |
| c1ccc(CC(c2c[nH]c3ccccc23)c2c[nH]c3ccccc23)cc1 | microbial growth, absorbance |  |  | IC50 | > 50 µM |
| CCCNC(=O)[C@H](Cc1ccc(O)cc1)NC(=O)[C@@H]1Cc2ccc(O)c(c2)-c2cc(ccc2O)C[C@@H](NC(=O)[C@H](CC(N)=O)NC(=O)[C@@H](Cc2ccc(O)cc2)NC(=O)[C@@H](CC(C)C)NC)C(=O)N[C@H](c2ccc(O)cc2)C(=O)N1 | bacterial growth |  |  | IC50 | > 40 µM |

Repeated from above:
| Compound | test | test system | conditions | quantity | result |
| --- | --- | --- | --- | --- | --- |
| CCCC/C=C/C(=O)N[C@@H](Cc1cc(F)cc(F)c1)C(=O)N[C@@H]1C(=O)N2CCC[C@H]2C(=O)N(C)[C@@H](C)C(=O)N[C@@H](C)C(=O)N2CCC[C@H]2C(=O)O[C@H]1C | microbial growth, broth dilution |  |  | MIC | 0.76 ng/mL |
| O=Cc1c[nH]c2ccccc12 | microbial growth, absorbance |  |  | IC50 | > 50 µM |
